# Published values gathered from unrelated publications.
# Each line is one published result; not all experiments were run side by side. ± gives the spread as reported.
SMILES,system,setting,tissue uptake
N=C(N)NCCC[C@@H]1NC(=O)[C@H](CCCCNC(=O)CC[C@H](NC(=O)CCOCCOCCOCCOCCNC(=O)CC[C@H](NC(=O)CN2CCN(CC(=O)O)CCN(CC(=O)O)CCN(CC(=O)O)CC2)C(=O)NCCOCCOCCOCCOCCC(=O)N[C@@H](CCC(=O)NCCCC[C@@H]2NC(=O)[C@@H](Cc3ccccc3)NC(=O)[C@H](CC(=O)O)NC(=O)CNC(=O)[C@H](CCCNC(=N)N)NC2=O)C(=O)NCCCC[C@@H]2NC(=O)[C@@H](Cc3ccccc3)NC(=O)[C@H](CC(=O)O)NC(=O)CNC(=O)[C@H](CCCNC(=N)N)NC2=O)C(=O)NCCCC[C@@H]2NC(=O)[C@@H](Cc3ccccc3)NC(=O)[C@H](CC(=O)O)NC(=O)CNC(=O)[C@H](CCCNC(=N)N)NC2=O)NC(=O)[C@@H](Cc2ccccc2)NC(=O)[C@H](CC(=O)O)NC(=O)CNC1=O [indium-111 labelled],"female athymic nude mice, muscle","intravenous, 3 µCi, 24 h, U-87 MG glioma xenograft",0.39 ± 0.26 %ID/g
CSCC[C@H](NC(=O)[C@H](CC(C)C)NC(=O)[C@H](Cc1c[nH]cn1)NC(=O)CNC(=O)[C@@H](NC(=O)[C@H](C)NC(=O)[C@H](Cc1c[nH]c2ccccc12)NC(=O)[C@H](CCC(N)=O)NC(=O)CCCCNC(=O)CSCCSCCP(CO)CO)C(C)C)C(N)=O [technetium-99m labelled],"female CF-1 mouse, carcass","intravenous, 4 h",3.7 %ID
CCCC[C@H](NC(=O)CCCCCCCNC(=O)c1ccc(NN)nc1)C(=O)N[C@H]1CC(=O)NCCCC[C@@H](C(N)=O)NC(=O)[C@H](Cc2c[nH]c3ccccc23)NC(=O)[C@H](CCCNC(=N)N)NC(=O)[C@@H](Cc2ccccc2)NC(=O)[C@H](Cc2c[nH]cn2)NC1=O [technetium-99m labelled],"C57 mouse, B16/F1 melanoma, bone","2 h, added: NDP-MSH 10 µg (6.07 nmol) co-injected",0.3 ± 0.08 %ID/g
CCCC[C@H](NC(=O)CNC(=O)CNC(=O)c1ccc(NN)nc1)C(=O)N[C@H]1CC(=O)NCCCC[C@@H](C(N)=O)NC(=O)[C@H](Cc2c[nH]c3ccccc23)NC(=O)[C@H](CCCNC(=N)N)NC(=O)[C@@H](Cc2ccccc2)NC(=O)[C@H](Cc2c[nH]cn2)NC1=O [technetium-99m labelled],"C57 mouse, B16/F1 melanoma-bearing, brain","intravenous, 0.5 h",0.1 ± 0.02 %ID/g
CC(C)C[C@H](NC(=O)[C@H](Cc1ccc(O)cc1)NC(=O)[C@@H](CCCNC(=N)N)NC(=O)[C@@H](CO)NC(=O)[C@H](Cc1ccccc1)NC(=O)[C@H](CC1CCCCC1)NC(=O)[C@H](CC(=O)O)NC(=O)CCC(C(=O)O)N1CCCN2CCN(CCCN(CC(=O)O)CC2)CC1)C(=O)N[C@@H](Cc1c[nH]c2ccccc12)C(=O)N[C@@H](CO)C(=O)O (some centres unmarked) [copper-64 labelled],"female NMRI nude mice, liver",1 h p.i.,4.8 ± 0.7 %ID/g
CSCC[C@H](NC(=O)[C@H](CC(C)C)NC(=O)[C@H](Cc1c[nH]cn1)NC(=O)CNC(=O)[C@@H](NC(=O)[C@H](C)NC(=O)[C@H](Cc1c[nH]c2ccccc12)NC(=O)[C@H](CCC(N)=O)NC(=O)CCCCCNC(=O)CNC(=O)CNC(=O)CNC(=O)CSC(C)=O)C(C)C)C(N)=O [technetium-99m labelled],"nude mouse, PC-3 xenograft, spleen","30 min, added: excess unlabelled conjugate",1.4 ± 0.12 %ID/g
N=C(N)NCCC[C@@H]1NC(=O)[C@H](CCCCNC(=O)CC[C@H](NC(=O)CCOCCOCCOCCOCCNC(=O)CN2CCN(CC(=O)O)CCN(CC(=O)O)CCN(CC(=O)O)CC2)C(=O)NCCCC[C@@H]2NC(=O)[C@@H](Cc3ccccc3)NC(=O)[C@H](CC(=O)O)NC(=O)CNC(=O)[C@H](CCCNC(=N)N)NC2=O)NC(=O)[C@@H](Cc2ccccc2)NC(=O)[C@H](CC(=O)O)NC(=O)CNC1=O [indium-111 labelled],"female athymic nude mice, lungs","intravenous, 3 µCi, 1 h, U-87 MG glioma xenograft",1.91 ± 0.25 %ID/g
N=C(N)NCCC[C@@H]1NC(=O)[C@H](CC(=O)NC23CNCCNCC(N)(CNCCNC2)CNCCNC3)NC(=O)[C@@H](Cc2ccccc2)NC(=O)[C@H](CC(=O)O)NC(=O)CNC1=O [copper-64 labelled],"Nu/Nu mouse, male, tumour-bearing, lung","intravenous, 10 µCi, 4 h",0.9 ± 0.33 %ID/g
CCCC[C@H](NC(=O)COCCOCCNC(=O)c1ccc(NN)nc1)C(=O)N[C@H]1CC(=O)NCCCC[C@@H](C(N)=O)NC(=O)[C@H](Cc2c[nH]c3ccccc23)NC(=O)[C@H](CCCNC(=N)N)NC(=O)[C@@H](Cc2ccccc2)NC(=O)[C@H](Cc2c[nH]cn2)NC1=O [technetium-99m labelled],"C57 mouse, female, B16/F1 melanoma, blood","intravenous, 0.037 MBq, 2 h",0.39 ± 0.07 %ID/g
N=C(N)NCCC[C@@H]1NC(=O)[C@H](CCCCNC(=O)CCOCCOCCOCCOCCNC(=O)CC[C@H](NC(=O)CCOCCOCCOCCOCCNC(=O)CC[C@H](NC(=O)CN2CCN(CC(=O)O)CCN(CC(=O)O)CCN(CC(=O)O)CC2)C(=O)NCCOCCOCCOCCOCCC(=O)N[C@@H](CCC(=O)NCCOCCOCCOCCOCCC(=O)NCCCC[C@@H]2NC(=O)[C@@H](Cc3ccccc3)NC(=O)[C@H](CC(=O)O)NC(=O)CNC(=O)[C@H](CCCNC(=N)N)NC2=O)C(=O)NCCOCCOCCOCCOCCC(=O)NCCCC[C@@H]2NC(=O)[C@@H](Cc3ccccc3)NC(=O)[C@H](CC(=O)O)NC(=O)CNC(=O)[C@H](CCCNC(=N)N)NC2=O)C(=O)NCCOCCOCCOCCOCCC(=O)NCCCC[C@@H]2NC(=O)[C@@H](Cc3ccccc3)NC(=O)[C@H](CC(=O)O)NC(=O)CNC(=O)[C@H](CCCNC(=N)N)NC2=O)NC(=O)[C@@H](Cc2ccccc2)NC(=O)[C@H](CC(=O)O)NC(=O)CNC1=O [indium-111 labelled],"female athymic nude mice, kidney","intravenous, 3 µCi, 4 h, U-87 MG glioma xenograft",5.55 ± 0.88 %ID/g
N=C(N)NCCC[C@@H]1NC(=O)[C@H](CCCCNC(=O)CNC(=O)CNC(=O)CNC(=O)CC[C@H](NC(=O)c2ccc(NN=Cc3ccccc3S(=O)(=O)O)nc2)C(=O)NCC(=O)NCC(=O)NCC(=O)NCCCC[C@@H]2NC(=O)[C@@H](Cc3ccccc3)NC(=O)[C@H](CC(=O)O)NC(=O)CNC(=O)[C@H](CCCNC(=N)N)NC2=O)NC(=O)[C@@H](Cc2ccccc2)NC(=O)[C@H](CC(=O)O)NC(=O)CNC1=O [technetium-99m labelled],"athymic nu/nu mouse, female, MDA-MB-435 xenograft, tumour","intravenous, 2 µCi, 30 min",8.48 ± 0.59 %ID/g
